Experimental data gathered from unrelated publications.
Values joined by “and” are separate records of one study, mostly repeats; a detail may differ.
CDK16: Cyclin-dependent kinase 16 (CDK16, Homo sapiens, UniProt Q00536)
CDK16 with cyclin Y: Cyclin-dependent kinase 16, with cyclin Y (CDK16, Homo sapiens, UniProt Q00536)

| SMILES | target | assay | test system | setting | scale | endpoint | value |
| --- | --- | --- | --- | --- | --- | --- | --- |
| COc1cc(Nc2nccc(-c3cnn4nc(OC)ccc34)n2)cc(C(F)(F)F)c1 | CDK16 | binding, competition with immobilised ligand | – | 1 µM | – | remaining binding | 100% |
| CNC1C[S+]2CC[S+]3CC[S+](C1)[Ru-4]321([N]=C=S)[n]2c3ccc(OC)cc3c3c4c(c5cc(F)c[n+]1c5c32)C(=O)NC4=O (stereo not shown) | CDK16 | KinomeScan | – | 0.1 µM | baseline: untreated | remaining binding | 100% |
| CN1C[C@@H](c2c[nH]c3cc(Br)ccc23)NC[C@@H]1c1c[nH]c2cc(Br)ccc12 | CDK16 with cyclin Y | enzyme activity, inhibitor | – | 10 µM | – | remaining activity | 96% |
| C=C1CCCCCCCCCC(CO)C1=O (stereo not shown) | CDK16 | cell-free assay, competition with immobilised ligand | – | 10 µM | – | remaining binding | 85% |
| CN1CCN(Cc2ccc(-c3ccc(CO[C@H]4CCC[C@@H]4NC(=O)c4cc(-c5cnn(C)c5)cnc4N)cc3)cc2)CC1 | CDK16 with cyclin Y | enzyme activity, inhibitor | – | 0.1 µM | – | inhibition | -2% |
| CN1CCN(Cc2ccc(NC(=O)c3cccc(C#Cc4cnc(N)c5ncccc45)c3)cc2C(F)(F)F)CC1 | CDK16 | cell-free assay, competition with immobilised ligand | – | 0.5 µM | – | remaining binding | 62% |
| COCC12C(=O)NC3C4(C(OC)CC1O)C1CC5(O)C(OC)C(O)C(OC(C)=O)(C1C5OC(=O)c1ccccc1)C3(O)C(OC)C24 (stereo not shown) | CDK16 | kinase activity, inhibitor, ProQinase kinase profiling | – | 25 µM | baseline: control | remaining activity | 86% and 96% |
| CC(=O)N1c2ccc(-c3ccc(CNC(=O)c4cn5cc(-c6cnc(N)nc6)nc(N6CCOCC6)c5n4)cc3)cc2CC[C@@H]1C | CDK16 | KINOMEscan | – | 10 µM | – | remaining binding | 79% |
| C=CC(=O)N1CCc2ccc(-n3c(=O)ccc4cnc5ccc(-c6cnn(C)c6)cc5c43)cc21 | CDK16 | KINOMEscan | – | 1 µM | baseline: DMSO control | remaining binding | 92% |
| CCn1cc(C(=O)O)c(=O)c2c(N)c(F)c(NC3CCCCC3)cc21 | CDK16 with cyclin Y | kinase activity | – | 0.1 µM, with: ATP at Km | – | inhibition | 38.3% |
| C=CC(=O)Nc1cc(-c2nn(C3CCN(CCNC(=O)[C@H](C)CCC45CC6CC(CC(C6)C4)C5)CC3)c3ncnc(N)c23)ccc1Oc1ccccc1 | CDK16 | inhibitor, KiNativ profiling | biochemical | 2 µM | – | inhibition | 10.7% |
| CCN1CCN(Cc2ccc(C(=O)Nc3ccc(C)c(NCc4cnc5[nH]ccc5c4OC)c3)cc2C(F)(F)F)CC1 | CDK16 | binding, competition with immobilised ligand | – | 1 µM | – | remaining binding | 100% |
| C=CC(=O)N1Cc2nc(-c3cc(-c4cc(Cl)cnc4Cl)c(F)cc3F)n(-c3ccncn3)c2C1 | CDK16 with cyclin Y | cell-free assay, inhibitor | – | 1 µM | – | inhibition | 0.2% |

A few entries again:
| SMILES | target | assay | test system | setting | scale | endpoint | value |
| --- | --- | --- | --- | --- | --- | --- | --- |
| COCC12C(=O)NC3C4(C(OC)CC1O)C1CC5(O)C(OC)C(O)C(OC(C)=O)(C1C5OC(=O)c1ccccc1)C3(O)C(OC)C24 (stereo not shown) | CDK16 | kinase activity, inhibitor, ProQinase kinase profiling | – | 25 µM | baseline: control | remaining activity | 86% and 96% |
| C=CC(=O)Nc1cc(-c2nn(C3CCN(CCNC(=O)[C@H](C)CCC45CC6CC(CC(C6)C4)C5)CC3)c3ncnc(N)c23)ccc1Oc1ccccc1 | CDK16 | inhibitor, KiNativ profiling | biochemical | 2 µM | – | inhibition | 10.7% |
